Literature values, collected from citations in different studies.
± marks the error that the study gave.
Target: EGFR

Compound | assay | IC50 [nM]
Cc1ccc2nc(SCc3cn(-c4cccc(C(=O)O)c4)nn3)n(Cc3ccccc3)c(=O)c2c1 | inhibitor | 38.5
N#Cc1ccc(-c2csc(N3N=C(c4ccc(N5CCOCC5)cc4)CC3c3ccc(Cl)cc3)n2)cc1 (stereo not drawn) | kinase activity, inhibitor | 4340
CC(C)=CC[C@@H](OC(=O)/C=C/C(=O)c1ccc(F)cc1)C1=CC(=O)c2c(O)ccc(O)c2C1=O | – | 22.7
O=C1N/C(=N/N=C/c2cc(Br)ccc2O)CS1 | inhibitor | 90
Cc1ccc(Nc2cc(Oc3ccc4[nH]ccc4c3)ncn2)cc1S(N)(=O)=O | – | 18
C=CCn1c(SCC(=O)Nc2ccc(C(=O)/C=C/c3ccc(Cl)cc3)cc2)nnc1-c1cc(-c2ccccc2)nc2ccccc12 | inhibitor | 1300 ± 120
Oc1ccccc1 | – | 0.76
O=C(NCCc1ccc(N2CCOCC2)cc1)c1[nH]c2ccc(Cl)cc2c1CO | – | 120
O=C(CSc1nnc(Cn2cc(-c3ccccc3)nn2)o1)Nc1nc(-c2ccc(Br)cc2)cs1 | inhibitor | 160 ± 50
